Results pooled from the literature.
Numbered parts are unrelated; each lists some results of a single study.

Series 1
Target: Alpha-2B adrenergic receptor (ADRA2B, Homo sapiens, UniProt P18089)
Sequence of UniProt P18089 (whole entry, looked up): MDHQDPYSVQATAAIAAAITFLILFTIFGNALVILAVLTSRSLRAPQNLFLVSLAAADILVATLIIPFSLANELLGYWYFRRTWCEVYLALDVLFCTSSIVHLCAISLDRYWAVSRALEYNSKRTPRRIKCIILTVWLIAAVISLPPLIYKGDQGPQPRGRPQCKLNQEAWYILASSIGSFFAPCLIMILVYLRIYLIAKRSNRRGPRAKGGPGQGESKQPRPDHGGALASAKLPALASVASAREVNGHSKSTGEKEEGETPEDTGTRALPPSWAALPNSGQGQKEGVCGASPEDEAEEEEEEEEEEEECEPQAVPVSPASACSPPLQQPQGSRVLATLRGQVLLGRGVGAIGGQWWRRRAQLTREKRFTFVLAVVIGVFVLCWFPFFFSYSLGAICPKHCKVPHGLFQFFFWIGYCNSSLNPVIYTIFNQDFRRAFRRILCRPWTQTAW
Effect on: ligand displacement
Tested at: 10 µM
Measurement: inhibition
CS(=O)(=O)N1CCCC(NC(=O)[C@H](CCC2CCCCC2)NC(=O)c2ccc(CNC(=O)c3cnc4ccccn34)cc2)C1 (some centres unmarked): 13.5%
O=C(NCCCC1CCCCC1)c1ccc(CNC(=O)c2cnn(-c3ccccc3)c2C(F)(F)F)cc1: 1.13%
CCC(F)(F)c1cc(N2CCC(S(C)(=O)=O)CC2)nc2sc(C(N)=O)c(N)c12: 9.66%
Cc1ccc(-c2cnc([C@@]3(O)CC[C@H](C(=O)O)C(C)(C)C3)s2)cc1Nc1cccc(C(F)(F)F)n1: 27%
CN1CCN(C(=O)C(C)(C)c2ccc(C(=O)Nc3cn4cc(-c5cc(C(C)(C)C)cc(C(C)(C)C)c5)ccc4n3)cc2)CC1: 77.6%
COc1cccc(NC(=O)c2nc3scc(CN(C)Cc4ccccc4)c3c(=O)[nH]2)c1: 17.4%
CNC(=N)NCCC[C@H](NC(=O)[C@H](CC(C)C)NC(=O)NNC(=O)[C@H](Cc1ccccc1)NC(=O)[C@H](CO)NC(=O)[C@H](CC(N)=O)NC(=O)[C@@H](Cc1ccncc1)NC(=O)[C@H](N)Cc1ccc(O)cc1)C(=O)N[C@@H](Cc1ccccc1)C(N)=O: 17.6%
CN(C)c1ncnc(-c2ccc3nc(Nc4cc(CN5CCN(C(=O)CC(F)(F)F)CC5)ccn4)[nH]c3c2)c1Cl: -2.22%
CC[C@H](CC(=O)O)n1c(=O)c2ncccc2n(Cc2cn(C)c3cc(C)cc(C)c23)c1=O: 0.56%
NS(=O)(=O)c1cc(NC(=O)Cc2ccccc2)ccc1Oc1cccc(Cl)c1: 56.6%
Nc1nc(NCc2ccccc2)nc(-c2ccccc2CO)n1: 43.9%
C[C@@H]1CN(c2cc(-c3n[nH]c4ccc(OC5(C)CC5)cc34)ncn2)C[C@H](C)O1: 6.1%
O=C1NC(c2ccccn2)Sc2ccccc21 (centres unmarked): -5.58%
COc1cc(N[C@@H]2CCCC[C@]2(O)C(F)(F)F)ccc1F: -0.18%
Cc1noc([C@H]2C[C@@H](c3ccc(C(F)(F)F)cc3)CN(C(=O)N3CCS(=O)(=O)C3)C2)n1: -2.77%
Cc1ncc(-c2cc(Cl)ccc2F)cc1-n1c(=O)n(CC(N)=O)c2ccccc21: 17.3%
Cn1cc(Cl)c2c(Oc3c(F)cc(Nc4cc(Cl)nc(N)n4)cc3F)ccnc21: -4.05%
O=c1nc(-c2ccccn2)sc2ccccc12: 17%
CC(=O)Nc1ncc(CN2CCC[C@H](Cc3cc(C)nc(C)c3)C2)s1: 44.8%
O=C(Nc1ccc(Oc2ccc(F)cc2)cc1)N1CCc2ncccc2[C@H]1c1ccc(F)cc1: 49.6%
CN(C)C(=O)c1sc2nc(N3CCC(S(C)(=O)=O)CC3)cc(C(F)(F)F)c2c1N: 3.36%
Cc1c(NC(=O)c2cc(C(N)=O)nc3cc(F)ccc23)c(C(F)(F)F)nn1Cc1ccc(C#N)cc1: 7.65%
CN(C)CC#Cc1ccc(OCCCc2sc(N3CCc4cccc(C(=O)Nc5nc6ccccc6s5)c4C3)nc2C(=O)O)c(F)c1: 17.2%

Series 2
Host: human
Medium: microsomes or S9
Tested at: 2 µM
Time: 0.5 h
Measurement: remaining compound
Clc1cccnc1N1CCCC(Cn2ccnc2)C1 (centres unmarked): 84.7%
CCc1ccc(/C=N/Nc2nn3cnnc3c3ccccc23)cc1: 20.6%
O=C(O)CC1CCC(c2ccc(-c3ccc(C(=O)NCCC(=O)Nc4nc(-c5cc(F)c(F)cc5F)cs4)cn3)cc2)CC1 (centres unmarked): 72.8%
Cc1nc(OCCN2CCOCC2)c(C#N)c2c1COC(C)(C)C2: > 100%
O=C(Cn1ccccc1=O)N1C[C@@H]2CC[C@H](C1)N(Cc1cscn1)C2=O: 86.7%
CC(C)(C)OC(=O)N1CCC(n2cc(-c3cnc(N)c(-c4nc5ccccc5o4)c3)c3ccccc32)CC1: 45.7%
O=C(Cn1ncc2ccccc2c1=O)c1ccc(Cl)cc1: 27.4%
CN(C)Cc1nnc([C@H]2C[C@H](NC(=O)C3CCC(C(C)(C)C)CC3)C2)n1C (some centres unmarked): 95.3%
Oc1cc(CCn2cnc(-c3ccccc3)c2-c2cccc3cccnc23)ncn1: 54%
O=C(Cn1ccc2ccccc21)NCCn1ncccc1=O: > 100%

Series 3
Target: Mitogen-activated protein kinase kinase kinase kinase 4 (MAP4K4, Homo sapiens, UniProt O95819)
Sequence of UniProt O95819 (whole entry, looked up): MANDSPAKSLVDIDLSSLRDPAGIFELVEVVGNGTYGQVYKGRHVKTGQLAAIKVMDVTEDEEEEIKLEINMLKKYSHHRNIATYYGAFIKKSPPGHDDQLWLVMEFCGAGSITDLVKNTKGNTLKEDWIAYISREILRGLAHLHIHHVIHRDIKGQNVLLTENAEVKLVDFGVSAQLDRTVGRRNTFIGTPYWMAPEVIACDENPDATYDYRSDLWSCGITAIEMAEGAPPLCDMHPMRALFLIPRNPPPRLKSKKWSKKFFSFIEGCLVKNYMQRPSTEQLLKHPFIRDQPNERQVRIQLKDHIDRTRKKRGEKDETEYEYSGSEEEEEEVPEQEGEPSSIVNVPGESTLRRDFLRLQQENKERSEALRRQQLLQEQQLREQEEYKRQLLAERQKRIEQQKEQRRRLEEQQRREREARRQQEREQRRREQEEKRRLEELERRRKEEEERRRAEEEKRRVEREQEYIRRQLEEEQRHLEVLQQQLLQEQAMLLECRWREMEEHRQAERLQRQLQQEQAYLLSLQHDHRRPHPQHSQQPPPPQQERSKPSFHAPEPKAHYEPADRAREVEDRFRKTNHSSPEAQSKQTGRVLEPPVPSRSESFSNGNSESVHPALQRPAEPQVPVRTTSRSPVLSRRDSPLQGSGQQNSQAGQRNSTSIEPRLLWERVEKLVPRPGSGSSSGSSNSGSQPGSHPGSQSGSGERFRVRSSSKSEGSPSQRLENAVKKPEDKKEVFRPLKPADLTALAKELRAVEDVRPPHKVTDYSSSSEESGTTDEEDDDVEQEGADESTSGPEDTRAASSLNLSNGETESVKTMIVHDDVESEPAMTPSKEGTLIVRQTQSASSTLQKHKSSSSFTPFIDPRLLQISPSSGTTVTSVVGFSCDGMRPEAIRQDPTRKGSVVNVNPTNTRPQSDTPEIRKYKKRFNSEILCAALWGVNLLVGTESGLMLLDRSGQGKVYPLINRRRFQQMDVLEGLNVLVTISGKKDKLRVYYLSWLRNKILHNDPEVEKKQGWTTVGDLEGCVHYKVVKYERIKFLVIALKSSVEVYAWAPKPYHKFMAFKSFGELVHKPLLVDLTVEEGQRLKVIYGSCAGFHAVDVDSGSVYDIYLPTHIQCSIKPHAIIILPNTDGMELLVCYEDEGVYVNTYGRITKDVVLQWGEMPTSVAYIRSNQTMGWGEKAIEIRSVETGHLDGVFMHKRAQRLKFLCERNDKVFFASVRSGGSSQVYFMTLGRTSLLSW
Effect on: enzyme activity
Mode: inhibitor
Tested at: 0.5 µM
Relative to: control
Measurement: remaining activity
N#Cc1c(NC(=O)c2cccc3ccccc23)sc2c1CCCC2: 88.9%
c1ccc(-c2cnc(Nc3ccc(OCCN4CCCC4)cc3)s2)cc1: 35.5%
CN(C)C[C@H]1CCn2c(c(C3=C(c4cn(C)c5ccccc45)C(=O)NC3=O)c3ccccc32)C1: 82.5%
C[C@@H]1CCN(C(=O)CC#N)C[C@@H]1N(C)c1ncnc2[nH]ccc12: 101%
CCOc1nc(NC(=O)Cc2cc(OC)ccc2OC)cc(N)c1C#N: 94.6%
CCN(CC)CCNC(=O)c1c(C)[nH]c(/C=C2\C(=O)Nc3ccc(F)cc32)c1C: 12.4%
O=c1cc(-c2cccc3c2Sc2ccccc2S3)oc(N2CCOCC2)c1: 93.2%
CN([C@@H](Cc1ccc(OS(=O)(=O)c2cccc3cnccc23)cc1)C(=O)N1CCN(c2ccccc2)CC1)S(=O)(=O)c1cccc2cnccc12: 94.8%
Cc1cn(-c2cc(NC(=O)c3ccc(C)c(Nc4nccc(-c5cccnc5)n4)c3)cc(C(F)(F)F)c2)cn1: 106%
CCN(CC)C(=O)c1ccc(Nc2nc(OCC3CCCCC3)c3[nH]cnc3n2)cc1: 85.9%
COc1cc2c(cc1OC)-c1[nH]nc(Nc3cccc(F)c3)c1C2: 55.5%
Nc1cccc(-c2cc3c(Oc4cccc(O)c4)ncnc3[nH]2)c1: 12.5%
O=C1c2ccccc2-c2n[nH]c3cccc1c23: 64%
c1ccc(-c2[nH]ncc2-c2ccnc3ccccc23)nc1: 48.3%
COc1cc2ncnc(Nc3ccc(O)c(Br)c3)c2cc1OC: 59.3%
COc1cc2ncnc(Nc3cccc(Cl)c3)c2cc1OC: 68.1%
Cc1cc2ncc(-c3ccccc3)nc2cc1C: 85%
Cc1nc2cc3nc(-c4cccs4)cnc3cc2n1C: 84.5%
O=C1C(Cl)=C(N2C(=O)CCC2=O)C(=O)c2ccccc21: 93.7%

Series 4
Method: PRP chromatography estimate
Medium: 1,9-decadiene/PBS
pH: 7.4
Measurement: logD
CC(C)C[C@@H]1NC(=O)[C@H](C)NC(=O)[C@@H](CC(C)C)NC(=O)[C@H](CC(C)C)NC(=O)[C@@H](CCC(=O)N2CCCC2)NC(=O)[C@H](CC(C)C)NC(=O)[C@@H](CC(C)C)NC1=O: -0.31
CC(C)C[C@@H]1NC(=O)[C@H](CC(C)C)NC(=O)[C@@H](CC(C)C)NC(=O)[C@H](CC(C)C)NC(=O)[C@H](C(C)C)NC(=O)[C@H](Cc2cscn2)NC(=O)[C@H](C)NC1=O: -0.115
CC(C)C[C@@H]1NC(=O)[C@@H](C)NC(=O)[C@@H](CC(C)C)NC(=O)[C@@H](C(C)C)NC(=O)[C@H](C)NC(=O)[C@H](CC(C)C)NC(=O)[C@@H](CC(C)C)NC1=O: -0.495
CC(C)C[C@@H]1NC(=O)[C@H](CC(C)C)NC(=O)[C@@H](CC(C)C)NC(=O)[C@@H](C(C)C)NC(=O)[C@H](C(C)C)NC(=O)[C@H](CC(C)C)NC(=O)[C@@H](CC(C)C)NC1=O: 2.04
CC(C)C[C@@H]1NC(=O)[C@@H](C)NC(=O)[C@H](C)NC(=O)[C@H](C)NC(=O)[C@H](C(C)C)NC(=O)[C@H](CC(C)C)NC(=O)[C@@H](CC(C)C)NC1=O: -2.44
CC(C)C[C@@H]1NC(=O)[C@H](C(C)C)NC(=O)[C@H](CC(C)C)NC(=O)[C@@H](CC(C)C)NC(=O)[C@H](CC(C)C)NC(=O)[C@@H](C)NC(=O)[C@@H](CC(C)C)NC1=O: 0.769
CC(C)C[C@@H]1NC(=O)[C@H](CC(C)C)NC(=O)[C@@H](CC(C)C)NC(=O)[C@@H](C)NC(=O)[C@H](C)NC(=O)[C@H](Cc2cscn2)NC(=O)[C@H](CCC(=O)N2CCCC2)NC1=O: -2.88
CC(C)C[C@@H]1NC(=O)[C@@H](C)NC(=O)[C@H](C)NC(=O)[C@@H](CC(C)C)NC(=O)[C@H](C(C)C)NC(=O)[C@H](CC(C)C)NC(=O)[C@@H](CC(C)C)NC1=O: -0.562
CC(C)C[C@@H]1NC(=O)[C@H](C)NC(=O)[C@H](C)NC(=O)[C@@H](CC(C)C)NC(=O)[C@H](C)NC(=O)[C@H](CC(C)C)NC(=O)[C@H](CC(C)C)NC1=O: -1.82
CC(C)C[C@@H]1NC(=O)[C@H](C)NC(=O)[C@@H](CC(C)C)NC(=O)[C@H](C)NC(=O)[C@@H](Cc2cscn2)NC(=O)[C@H](CC(C)C)NC(=O)[C@@H](CC(C)C)NC1=O: -1.5
